Measured values of several laboratories.
Every numbered part comes from another study and shows a few of its results, in no order. Positions count from the first letter of the parent shown.

Block 1
Target: ABI1, truncated, D143A, DHFR fusion (Arabidopsis thaliana)
Technique: DHFR PCA, deep sequencing
Sample: yeast
Setting: methotrexate growth selection, single substitutions
With: (+)-ABA 200 µM
Baseline: wild-type fitted maximum
Reading: higher = stronger binding
Quantity: relative binding score
Starting sequence: PYL1, truncated, DHFR fusion (Arabidopsis thaliana); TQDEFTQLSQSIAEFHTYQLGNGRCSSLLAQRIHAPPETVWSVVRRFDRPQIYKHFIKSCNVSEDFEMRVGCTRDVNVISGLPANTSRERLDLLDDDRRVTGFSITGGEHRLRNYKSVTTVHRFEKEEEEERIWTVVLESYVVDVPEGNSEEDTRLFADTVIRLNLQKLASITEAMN
Substitution = F47C; value = -1.99%
Substitution = T106D; value = 74.4%
Substitution = R123L; value = 99%
Substitution = E109L; value = 83.9%
Substitution = S42N; value = 95%
Substitution = D97W; value = 87.4%
Substitution = Y141N; value = -10.7%
Substitution = R88S; value = 98.4%
Substitution = S80V; value = 17.8%
Substitution = Q7E; value = 95%
Substitution = V40Y; value = -8.68%
Substitution = T39K; value = 102%
Substitution = I162W; value = 0.626%
Substitution = D144M; value = 60.3%
Substitution = L166S; value = -8.47%
Substitution = S42L; value = 84.5%
Substitution = F103Y; value = 100%
Substitution = S140Q; value = 6.46%
Substitution = R45H; value = 21.8%
Substitution = G23F; value = 86.6%
Substitution = T101Y; value = 93.3%
Substitution = T120D; value = 3.25%

Block 2
Target: CCND1, cyclin fold, Cln2 fusion (human)
Technique: yeast growth competition, sequencing
Sample: yeast
Setting: weak parent motif
Baseline: not given
Reading: higher = stronger binding
Quantity: normalised enrichment score
Starting sequence: HASPIN docking peptide (human); ASLRSVLFGLMNS; partner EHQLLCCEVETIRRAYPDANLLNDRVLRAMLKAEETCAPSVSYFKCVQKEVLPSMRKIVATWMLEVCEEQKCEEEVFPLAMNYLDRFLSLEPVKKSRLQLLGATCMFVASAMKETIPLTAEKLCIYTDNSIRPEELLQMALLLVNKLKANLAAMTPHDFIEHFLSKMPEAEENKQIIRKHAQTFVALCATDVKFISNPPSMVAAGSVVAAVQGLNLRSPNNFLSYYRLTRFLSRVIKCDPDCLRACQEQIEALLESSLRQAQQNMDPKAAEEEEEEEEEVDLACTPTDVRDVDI
Substitution = F8A; value = 0.279
Substitution = S2A; value = 0.158
Substitution = S13A; value = 0.271
Substitution = S5A; value = 0.675
Substitution = R4A; value = -0.581
Substitution = L3A; value = 0.313

Block 3
Target: RING finger protein unkempt homolog, zinc fingers 1-6, GST-SBP tag (UNK, Homo sapiens, UniProt Q9C0B0, residues 30-357)
Chain of UniProt Q9C0B0 (30-357, looked up): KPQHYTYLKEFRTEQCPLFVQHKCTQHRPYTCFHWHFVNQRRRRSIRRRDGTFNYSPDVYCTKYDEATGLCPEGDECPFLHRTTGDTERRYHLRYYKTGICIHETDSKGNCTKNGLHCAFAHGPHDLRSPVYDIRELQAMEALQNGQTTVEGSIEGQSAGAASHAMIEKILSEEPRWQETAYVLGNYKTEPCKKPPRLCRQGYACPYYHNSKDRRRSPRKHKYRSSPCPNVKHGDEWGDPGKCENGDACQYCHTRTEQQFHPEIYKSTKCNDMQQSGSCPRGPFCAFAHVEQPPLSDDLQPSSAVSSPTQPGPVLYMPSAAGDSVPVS
Technique: RNA Bind-n-Seq
Molecule type: RNA
Sample: in vitro
Concentration: not given
Setting: RNA with constant flanks, human and mouse sites, ends assumed
Baseline: input RNA pool
Reading: higher = stronger binding
Quantity: bound/input enrichment
Strand = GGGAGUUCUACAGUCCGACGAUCUUAAGCCCAAGCCCCUUGGACACUGCAGCUCUUUUCAGUUUUUGCUUAUACACAAUUCAUUCUUUGCAGCUAAUUAAGCCGAAGAAGCCUGGGAAUCAAGUUUGAAACAAAGAUUAAUAACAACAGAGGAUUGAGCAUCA; value = 0.152 ratio
Strand = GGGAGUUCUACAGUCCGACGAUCAUUAGAGAGUCUGGCAAGGCAGACAGGGAUGGUGAUAAAAUGGCUCCUUCAGUUGAAAAGAAGAUUGCAGAACUCGAAAUGGGACUCCUUCACUUGCAGCAAAAUAUUGAAAUUCCGGAGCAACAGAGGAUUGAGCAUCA; value = 0.467 ratio
Strand = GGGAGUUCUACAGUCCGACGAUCAGAGCCCAGGACGUUGAUGCUACAAACCCAAAUUAUGAAAUUAUGUGUAUGAUCAGAGACUUUAGAGGAAGUUUGGAUUAUAGACCAUUAACAACAGCAGAUCCUAUUGAUGAACAUAGGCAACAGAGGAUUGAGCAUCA; value = 0.931 ratio
Strand = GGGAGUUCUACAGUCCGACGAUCUUUGUUUCUUUUUUUUUUUUUUUCCUGAAAGUUCCUGAAACCACAGUGGAAAGUGAGCCUGUCUCAUAUUUGGCAAAGACAUUUCUUGAAGUGCCCACAUAGCAGAUGUUGGCUGUUUCACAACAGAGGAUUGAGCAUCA; value = 1.41 ratio
Strand = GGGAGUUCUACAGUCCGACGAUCCCAAGGCCUGCAGGUUUGCCUGCAAUGAGACUUUACUCUCUACACUUAAAGAACAUUCUUUCUGAGCUGCUGUGAAUAAAUUUGGAAUGAUUUUGUCUAUUUUCAACUAAUGGAGAACUACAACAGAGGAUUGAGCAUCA; value = 0.255 ratio
Strand = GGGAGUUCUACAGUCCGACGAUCAAAAUACUUCACAAUGAUCCAGAAGUUGAGAAGAAGCAGGGAUGGACAACCGUAGGGGAUUUGGAAGGAUGUGUACAUUAUAAAGUUGUAAAAUAUGAAAGAAUCAAAUUUCUGGUGAUUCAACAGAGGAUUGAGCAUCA; value = 1.65 ratio
Strand = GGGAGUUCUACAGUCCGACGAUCAAAUUUGAGAAAGUUUGAUCCAAAAUAUUACCUAUUUUAAAAAUCAGGUAAAACAGGAGUAAUAAACGAAAUGGGUUACAUUCAACAUGAGAAAUUGAUUUCCUAGAAGUGAAAUUUAGCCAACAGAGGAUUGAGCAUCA; value = 0.293 ratio
Strand = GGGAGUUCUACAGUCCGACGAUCCGCUGAUGUGAACCUUUUUAUAGAUUGUAGUAACCUGCAGAAAGAAGUAGGUUUUUAUUUUUAGGAAGUUAUGUACCAUAAUUUUAAACUUAAGUUUCUCUAAUAUUACUAACUAUAAAACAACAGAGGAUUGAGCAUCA; value = 1.26 ratio

Block 4
Target: CREM, bZIP domain (human)
Technique: DHFR protein complementation
Sample: yeast
Setting: single substitutions, most at no-binding floor
Baseline: wild-type JUN-FOS pair
Reading: higher = stronger binding
Quantity: binding fitness
Starting sequence: JUN, bZIP domain (human); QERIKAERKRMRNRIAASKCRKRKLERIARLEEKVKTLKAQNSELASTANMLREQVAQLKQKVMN; partner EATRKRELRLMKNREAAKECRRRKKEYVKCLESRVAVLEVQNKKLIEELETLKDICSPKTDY
Substitution = A49N; value = -1.56 natural log
Substitution = M51N; value = -1.47 natural log
Substitution = A29K; value = -1.44 natural log
Substitution = I28E; value = -1.34 natural log
Substitution = V56Q; value = -1.49 natural log
Substitution = S43M; value = -1.38 natural log
Substitution = K34M; value = -1.29 natural log
Substitution = K36P; value = -1.43 natural log
Substitution = L45D; value = -1.68 natural log
Substitution = V35C; value = -1.41 natural log
Substitution = Q55L; value = -1.56 natural log
Substitution = E54G; value = -1.49 natural log
Substitution = A29C; value = -1.4 natural log
Substitution = I28P; value = -1.5 natural log
Substitution = K36A; value = -1.39 natural log
Substitution = L45P; value = -1.51 natural log
Substitution = E33M; value = -1.54 natural log
Substitution = Q41E; value = -1.45 natural log
Substitution = A46I; value = -1.3 natural log
Substitution = V56R; value = -1.51 natural log

Block 5
Target: Histone acetyltransferase KAT6A, winged helix 2, GST fusion (KAT6A, Homo sapiens, UniProt Q92794, residues 85-181)
Technique: protein binding microarray
Molecule type: double-stranded DNA, one strand shown
Sample: in vitro
Concentration: not given
Setting: 8-mer, flanks averaged, mean of 2 arrays, mostly near background
Baseline: not given
Reading: higher = stronger binding
Quantity: E-score
Residues (chain): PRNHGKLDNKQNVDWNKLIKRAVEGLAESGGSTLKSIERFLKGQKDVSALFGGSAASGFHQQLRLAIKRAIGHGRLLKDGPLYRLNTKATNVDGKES
Strand = CAAACGGC; value = -0.0801
Strand = CTTCGTTA; value = 0.0149
Strand = GACCAATC; value = -0.0908
Strand = CATTACGA; value = -0.141
Strand = ATAGCACC; value = -0.0694
Strand = AGCTCTGC; value = -0.059
Strand = GCATTACA; value = -0.00225
Strand = GGGTACTA; value = -0.00138
Strand = CGCAAAAC; value = 0.101
Strand = CCCGCCAG; value = 0.0645
Strand = TACGCAAA; value = -0.0186
Strand = GATGCATA; value = 0.0304
Strand = CAAAGTAC; value = 0.0343
Strand = GACCCGTC; value = -0.0346
Strand = GCACCTAC; value = -0.0719
Strand = AACTGTAT; value = -0.0357
Strand = GAGGGAAA; value = 0.0914
Strand = AATGGAAT; value = 0.162
Strand = AGTCTTAT; value = -0.206

Other studies, line by line
Substance = PhoQ, residues 284 288 289 292 302 303 GLASVI; target = PhoP, residues 12 14 15 18 19 DLLYY (Escherichia coli, UniProt P23836); test = Sort-seq, refers to: YFP reporter; test system = E. coli; conditions = PhoQ-PhoP variant library, with: 10 µM Mg2+; how to read = baseline: high Mg2+ state, higher = stronger signaling; quantity = fold induction; value = 1.56

Repeated from above (block 5):
Strand = AGCTCTGC; value = -0.059
Strand = GCATTACA; value = -0.00225
Strand = GGGTACTA; value = -0.00138
Strand = CGCAAAAC; value = 0.101
Strand = CCCGCCAG; value = 0.0645
Strand = TACGCAAA; value = -0.0186
Strand = GATGCATA; value = 0.0304
Strand = CAAAGTAC; value = 0.0343
Strand = GACCCGTC; value = -0.0346
Strand = GCACCTAC; value = -0.0719
Strand = AACTGTAT; value = -0.0357
Strand = GAGGGAAA; value = 0.0914
